Results of several laboratories.
Parts stem from different laboratories: compare values within a part only. Several values in a cell are separate wells, animals, samples, runs or records.
Sequence of UniProt P49841 (whole entry, looked up): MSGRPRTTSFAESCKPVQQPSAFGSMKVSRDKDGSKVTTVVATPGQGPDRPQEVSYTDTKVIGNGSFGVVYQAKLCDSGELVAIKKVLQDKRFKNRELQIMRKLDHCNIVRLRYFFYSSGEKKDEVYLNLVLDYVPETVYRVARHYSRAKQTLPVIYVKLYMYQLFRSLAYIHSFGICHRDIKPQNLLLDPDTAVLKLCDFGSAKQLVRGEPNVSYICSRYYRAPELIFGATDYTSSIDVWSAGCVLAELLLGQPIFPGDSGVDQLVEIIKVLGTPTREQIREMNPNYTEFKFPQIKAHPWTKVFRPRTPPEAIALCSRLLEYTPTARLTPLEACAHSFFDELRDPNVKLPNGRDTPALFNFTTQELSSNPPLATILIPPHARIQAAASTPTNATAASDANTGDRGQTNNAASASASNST
Sequence of UniProt P36896 (whole entry, looked up): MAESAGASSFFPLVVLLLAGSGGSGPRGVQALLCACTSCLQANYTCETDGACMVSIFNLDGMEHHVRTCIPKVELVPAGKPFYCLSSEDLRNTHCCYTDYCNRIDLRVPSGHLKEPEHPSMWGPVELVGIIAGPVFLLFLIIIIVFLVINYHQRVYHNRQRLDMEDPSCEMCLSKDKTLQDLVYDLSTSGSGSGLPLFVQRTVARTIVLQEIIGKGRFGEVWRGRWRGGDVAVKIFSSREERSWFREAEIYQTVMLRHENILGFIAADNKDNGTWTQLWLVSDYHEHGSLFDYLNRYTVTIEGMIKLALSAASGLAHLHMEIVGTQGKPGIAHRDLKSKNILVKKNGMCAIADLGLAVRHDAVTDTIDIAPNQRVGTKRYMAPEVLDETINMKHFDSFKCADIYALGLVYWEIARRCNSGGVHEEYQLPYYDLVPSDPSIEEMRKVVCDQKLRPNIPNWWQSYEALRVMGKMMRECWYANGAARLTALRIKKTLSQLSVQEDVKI
Sequence of UniProt P06239 (whole entry, looked up): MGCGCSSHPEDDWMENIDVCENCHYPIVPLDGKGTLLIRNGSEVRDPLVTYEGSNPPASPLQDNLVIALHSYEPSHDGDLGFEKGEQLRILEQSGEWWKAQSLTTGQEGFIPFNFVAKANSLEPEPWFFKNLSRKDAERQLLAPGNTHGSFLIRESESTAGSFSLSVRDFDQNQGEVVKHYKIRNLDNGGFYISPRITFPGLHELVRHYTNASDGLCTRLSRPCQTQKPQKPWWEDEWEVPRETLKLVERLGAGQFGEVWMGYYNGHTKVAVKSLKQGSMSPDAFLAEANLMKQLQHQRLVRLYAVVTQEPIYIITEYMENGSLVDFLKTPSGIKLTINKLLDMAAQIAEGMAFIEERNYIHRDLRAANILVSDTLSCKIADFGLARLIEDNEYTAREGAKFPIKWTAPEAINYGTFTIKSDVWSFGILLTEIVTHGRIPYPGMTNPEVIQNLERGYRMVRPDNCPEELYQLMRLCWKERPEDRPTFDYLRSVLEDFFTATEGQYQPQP
Sequence of UniProt P36507 (whole entry, looked up): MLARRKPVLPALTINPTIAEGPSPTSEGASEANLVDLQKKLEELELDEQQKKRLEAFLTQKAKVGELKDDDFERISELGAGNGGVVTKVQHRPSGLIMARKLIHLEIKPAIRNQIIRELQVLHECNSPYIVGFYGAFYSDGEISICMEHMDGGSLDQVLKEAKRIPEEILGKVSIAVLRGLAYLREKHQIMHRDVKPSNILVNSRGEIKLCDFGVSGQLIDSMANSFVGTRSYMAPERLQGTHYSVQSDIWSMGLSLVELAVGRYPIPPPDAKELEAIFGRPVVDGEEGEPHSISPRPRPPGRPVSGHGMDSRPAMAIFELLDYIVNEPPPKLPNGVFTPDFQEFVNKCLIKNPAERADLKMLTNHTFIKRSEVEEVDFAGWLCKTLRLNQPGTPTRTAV
Sequence of UniProt Q9UHD2 (whole entry, looked up): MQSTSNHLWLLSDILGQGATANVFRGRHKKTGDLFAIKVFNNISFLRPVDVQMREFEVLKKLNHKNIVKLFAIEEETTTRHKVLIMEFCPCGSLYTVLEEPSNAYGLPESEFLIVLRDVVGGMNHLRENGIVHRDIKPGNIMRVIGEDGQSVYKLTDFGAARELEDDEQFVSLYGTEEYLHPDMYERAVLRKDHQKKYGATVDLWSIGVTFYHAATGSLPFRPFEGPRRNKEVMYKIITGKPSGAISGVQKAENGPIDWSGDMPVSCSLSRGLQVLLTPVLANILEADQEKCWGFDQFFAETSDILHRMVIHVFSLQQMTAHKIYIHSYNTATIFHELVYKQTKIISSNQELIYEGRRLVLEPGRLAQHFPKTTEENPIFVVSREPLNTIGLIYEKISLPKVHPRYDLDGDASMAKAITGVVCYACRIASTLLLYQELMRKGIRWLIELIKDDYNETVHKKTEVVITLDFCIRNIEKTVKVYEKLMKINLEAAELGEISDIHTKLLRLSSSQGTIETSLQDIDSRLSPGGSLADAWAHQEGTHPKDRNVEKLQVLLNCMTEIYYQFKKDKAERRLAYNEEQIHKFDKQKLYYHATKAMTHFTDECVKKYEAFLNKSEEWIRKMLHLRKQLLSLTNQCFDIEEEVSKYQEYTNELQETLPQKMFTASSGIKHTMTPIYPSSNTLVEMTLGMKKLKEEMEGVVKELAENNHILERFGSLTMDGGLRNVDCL
Sequence of UniProt Q9UPZ9 (whole entry, looked up): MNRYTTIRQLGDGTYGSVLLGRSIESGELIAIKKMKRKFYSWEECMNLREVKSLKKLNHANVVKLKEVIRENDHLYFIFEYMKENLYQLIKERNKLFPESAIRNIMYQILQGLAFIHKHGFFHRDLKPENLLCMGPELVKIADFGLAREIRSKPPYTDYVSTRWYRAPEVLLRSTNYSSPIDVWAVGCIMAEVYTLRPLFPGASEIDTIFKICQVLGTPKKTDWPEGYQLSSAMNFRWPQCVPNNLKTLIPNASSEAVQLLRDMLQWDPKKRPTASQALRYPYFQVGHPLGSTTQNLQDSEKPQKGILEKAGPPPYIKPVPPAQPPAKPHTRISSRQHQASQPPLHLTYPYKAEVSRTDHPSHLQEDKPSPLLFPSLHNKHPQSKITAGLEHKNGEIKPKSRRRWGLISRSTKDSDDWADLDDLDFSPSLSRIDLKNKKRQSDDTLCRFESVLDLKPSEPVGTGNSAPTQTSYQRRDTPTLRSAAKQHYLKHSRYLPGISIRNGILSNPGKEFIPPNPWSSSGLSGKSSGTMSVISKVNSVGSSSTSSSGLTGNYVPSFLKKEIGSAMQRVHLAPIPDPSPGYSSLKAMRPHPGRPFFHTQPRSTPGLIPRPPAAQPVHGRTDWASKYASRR
Sequence of UniProt Q12866 (whole entry, looked up): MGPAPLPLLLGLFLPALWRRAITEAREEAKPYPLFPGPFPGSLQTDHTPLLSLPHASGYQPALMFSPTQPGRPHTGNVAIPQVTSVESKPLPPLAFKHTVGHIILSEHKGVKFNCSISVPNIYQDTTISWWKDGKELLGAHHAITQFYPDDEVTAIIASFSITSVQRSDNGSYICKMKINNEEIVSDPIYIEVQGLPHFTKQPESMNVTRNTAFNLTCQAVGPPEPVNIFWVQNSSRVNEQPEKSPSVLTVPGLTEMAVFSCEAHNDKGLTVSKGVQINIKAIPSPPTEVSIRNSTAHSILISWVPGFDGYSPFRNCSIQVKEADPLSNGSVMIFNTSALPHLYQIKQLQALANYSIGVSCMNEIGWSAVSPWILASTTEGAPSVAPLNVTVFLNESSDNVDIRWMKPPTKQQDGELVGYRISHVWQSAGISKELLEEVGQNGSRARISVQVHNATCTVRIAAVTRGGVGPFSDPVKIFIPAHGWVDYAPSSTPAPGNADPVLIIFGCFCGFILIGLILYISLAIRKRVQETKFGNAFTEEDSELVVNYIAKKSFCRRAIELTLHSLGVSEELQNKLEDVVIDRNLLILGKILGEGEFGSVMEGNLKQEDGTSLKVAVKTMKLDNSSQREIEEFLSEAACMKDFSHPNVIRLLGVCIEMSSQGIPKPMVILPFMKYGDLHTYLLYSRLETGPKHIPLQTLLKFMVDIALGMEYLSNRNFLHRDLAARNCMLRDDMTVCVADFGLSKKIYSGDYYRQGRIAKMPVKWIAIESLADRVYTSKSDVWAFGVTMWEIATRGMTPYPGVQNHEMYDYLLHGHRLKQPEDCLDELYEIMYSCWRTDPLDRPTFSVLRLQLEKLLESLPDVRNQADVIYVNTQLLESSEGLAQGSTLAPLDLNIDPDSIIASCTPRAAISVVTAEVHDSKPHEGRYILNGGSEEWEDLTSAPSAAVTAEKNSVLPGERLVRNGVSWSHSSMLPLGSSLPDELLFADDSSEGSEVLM

Series 1 — mode: agonist
Target: Beta-1 adrenergic receptor (ADRB1, Homo sapiens, UniProt P08588)
Sequence of UniProt P08588 (whole entry, looked up): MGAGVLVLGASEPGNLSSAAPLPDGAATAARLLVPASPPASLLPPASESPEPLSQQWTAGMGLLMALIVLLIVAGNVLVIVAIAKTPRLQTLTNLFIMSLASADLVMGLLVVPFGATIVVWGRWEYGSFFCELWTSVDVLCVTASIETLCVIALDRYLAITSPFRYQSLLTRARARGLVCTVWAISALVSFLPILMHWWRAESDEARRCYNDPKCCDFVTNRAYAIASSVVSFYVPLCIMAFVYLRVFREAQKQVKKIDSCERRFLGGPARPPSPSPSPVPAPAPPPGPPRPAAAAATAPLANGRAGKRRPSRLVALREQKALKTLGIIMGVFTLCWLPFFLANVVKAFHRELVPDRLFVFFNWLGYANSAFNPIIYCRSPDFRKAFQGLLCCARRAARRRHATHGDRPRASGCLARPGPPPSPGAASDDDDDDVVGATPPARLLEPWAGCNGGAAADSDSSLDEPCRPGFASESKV
SMILES	EC50 [µM]
Cc1noc2c(-c3cccc(CO)c3)cc(-c3cccc(C(F)(F)F)c3)nc12	≥ 100
COc1ccccc1N1CCC(N2C(=O)C3CCCN3C2=O)CC1 (stereo not drawn)	≥ 100
COc1ccc2c(CSc3nnnn3-c3ccccc3)cc(=O)oc2c1	≥ 100
COc1ccccc1N1CCN([C@H]2[C@@H]3OC[C@@H](O3)[C@@H](NCc3ccc(-c4ccccc4)cc3)[C@@H]2O)CC1	≥ 100
Cc1nc(N)ncc1-c1nc(N2CCOCC2)c2sc(C(C)(C)O)cc2n1	≥ 100

Series 2 — concentration: 5 µM
SMILES: O=C(Nc1cnn(-c2csc(C(=O)NC3COC3)c2)c1)Nc1ccccc1Cl
target	assay	how to read	remaining activity
Protein kinase C beta type, isoform beta-I (PRKCB, Homo sapiens, UniProt P05771)	kinase activity, kinase panel profiling	–	102%
RIPK4 (Homo sapiens, UniProt P57078)	enzyme activity	relative to: untreated control	77%
CILK1 (Homo sapiens, UniProt Q9UPZ9)	enzyme activity	relative to: untreated control	112%
MAP3K10 (Homo sapiens, UniProt Q02779)	enzyme activity	relative to: untreated control	98.1%
NEK8 (Homo sapiens, UniProt Q86SG6)	enzyme activity	relative to: untreated control	107%
CDC42BPB (Homo sapiens, UniProt Q9Y5S2)	enzyme activity	relative to: untreated control	95.7%
EPHB1 (Homo sapiens, UniProt P54762)	enzyme activity	relative to: untreated control	99.4%
BRSK2 (Homo sapiens, UniProt Q8IWQ3)	enzyme activity	relative to: untreated control	101%

Series 3 — method: Incucyte 3D growth; concentration: 30 µM; reading: higher = more growth
SMILES: CC(C)(C(=O)O)[C@H](NC(=O)Cc1cccc(I)c1)c1ccc2oc(=O)[nH]c2c1
cell line	conditions	spheroid area
NCI-H358	216 h	6.05e+06 a.u. and 7.63e+06 a.u. and 8.23e+06 a.u. and 8.59e+06 a.u. and 7.29e+06 a.u. and 8.01e+06 a.u.
IPC-298	42 h	2.87e+07 a.u. and 2.82e+07 a.u. and 2.57e+07 a.u. and 2.03e+07 a.u. and 2.67e+07 a.u. and 2.3e+07 a.u.
A375	438.52 h	1.81e+08 a.u. and 1.66e+08 a.u. and 1.6e+08 a.u. and 1.8e+08 a.u. and 1.72e+08 a.u. and 1.49e+08 a.u.
IPC-298	216 h	2.53e+07 a.u. and 3.2e+07 a.u. and 2.79e+07 a.u. and 2.85e+07 a.u. and 4.03e+07 a.u. and 2.47e+07 a.u.
NCI-H1437	90 h	3e+07 a.u. and 2.94e+07 a.u. and 2.95e+07 a.u. and 2.5e+07 a.u. and 2.4e+07 a.u.
MEL-JUSO	24.52 h	9.21e+06 a.u. and 5.88e+06 a.u. and 9.3e+06 a.u. and 9.65e+06 a.u. and 9.11e+06 a.u. and 1.21e+07 a.u.

Series 4 — observed: cell-free assay; method: competition with immobilised ligand; concentration: 1 µM
SMILES: CO[C@H]1CC[C@H](CNc2ccc(S(=O)(=O)NC(=O)c3ccc(N4CCN(CC5=C(c6ccc(Cl)cc6)CC(C)(C)CC5)CC4)cc3Oc3cnc4[nH]ccc4c3)cc2[N+](=O)[O-])CC1
target	remaining binding [%]
FLT3 (Homo sapiens, UniProt P36888, D835H)	78
ACVR1B (Homo sapiens, UniProt P36896)	67
CDK17 (Homo sapiens, UniProt Q00537)	99
GSK3B (Homo sapiens, UniProt P49841)	100
LIM domain kinase 2 (LIMK2, Homo sapiens, UniProt P53671)	80
HCK (Homo sapiens, UniProt P08631)	71
BMPR1B (Homo sapiens, UniProt O00238)	92

Series 5 — Structure (SMILES): Nc1ncnc2n[nH]c(Nc3ccc(F)cc3)c12; observed: enzyme activity; mode: inhibitor; concentration: 0.5 µM; relative to: control
target	remaining activity [%]
FRK (Homo sapiens, UniProt P42685)	90
TAOK2 (Homo sapiens, UniProt Q9UL54)	97.3
MERTK (Homo sapiens, UniProt Q12866)	90.7
MAP3K5 (Homo sapiens, UniProt Q99683)	111
CSNK1G3 (Homo sapiens, UniProt Q9Y6M4)	97.9
FGFR3 (Homo sapiens, UniProt P22607)	101
ULK3 (Homo sapiens, UniProt Q6PHR2)	92.8
CSNK1G2 (Homo sapiens, UniProt P78368)	95.7
EPHA3 (Homo sapiens, UniProt P29320)	107
MAP2K2 (Homo sapiens, UniProt P36507)	90
ARAF (Homo sapiens, UniProt P10398)	80.7
GRK7 (Homo sapiens, UniProt Q8WTQ7)	105
JAK3 (Homo sapiens, UniProt P52333)	102
GSK3B (Homo sapiens, UniProt P49841)	101
MST1R (Homo sapiens, UniProt Q04912)	93.7
ACVR1B (Homo sapiens, UniProt P36896)	104
MAPK3 (Homo sapiens, UniProt P27361)	105
RPS6KA2 (Homo sapiens, UniProt Q15349)	70.6
TBK1 (Homo sapiens, UniProt Q9UHD2)	99.6
MAP3K14 (Homo sapiens, UniProt Q99558)	111
ULK2 (Homo sapiens, UniProt Q8IYT8)	110
LCK (Homo sapiens, UniProt P06239)	98.3
TEK (Homo sapiens, UniProt Q02763)	94.9
FGFR1 (Homo sapiens, UniProt P11362)	91.2
NEK1 (Homo sapiens, UniProt Q96PY6)	94

Excerpt of the above (series 5):
target	remaining activity [%]
ARAF (Homo sapiens, UniProt P10398)	80.7
MAP3K14 (Homo sapiens, UniProt Q99558)	111
ACVR1B (Homo sapiens, UniProt P36896)	104
CSNK1G2 (Homo sapiens, UniProt P78368)	95.7
